Measurements gathered from unrelated publications.
Each numbered part is a random draw from the data of one study; scales do not carry over between parts.

Series 1 — method: universal PBM; form: double-stranded DNA, one strand shown; medium: in vitro; concentration: not given; reading: higher = stronger binding; endpoint: E-score
Target: Sal-like protein 4, full length isoform B (SALL4, Homo sapiens, UniProt Q9UJQ4-2, residues 1-616)
Setting: 8-mer, flanks averaged, mean of replicates
TCCACGGA: 0.0533
TGACATCA: 0.135
ATTCCCCC: -0.0813
ACCAAGAT: 0.0946
CCTCCAAC: -0.155
ACCCTTAG: -0.035

Series 2 — method: DNA-protein interaction ELISA; form: double-stranded DNA, one strand shown; medium: in vitro, bacterial lysate; concentration: not given; setting: whole dsDNA probe, crude lysate protein; reference: highest signal in screen; reading: higher = stronger binding; endpoint: relative absorbance
Target: Probable WRKY transcription factor 33, C-terminal DNA-binding domain (WRKY33, Arabidopsis thaliana, UniProt Q8S8P5, residues 346-449)
Target sequence (chain): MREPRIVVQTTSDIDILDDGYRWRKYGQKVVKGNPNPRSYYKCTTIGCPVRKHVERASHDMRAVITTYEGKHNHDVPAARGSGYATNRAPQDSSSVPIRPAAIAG
AAAAAAAACAAAACCTCCTAATAGCGAAAA: 35.6 % of maximum
AAAAAACGTGCGCGTGCATGTCATCGAAAA: 28.2 % of maximum
AAAAAAACACCTGTATAGCATGGACGAAAA: 58.2 % of maximum
AAAAAACCGGCACGATTTGGATATTCAAAA: 47.6 % of maximum
AAAAAATTCGTTTTTCGTCTTTCATTAAAA: 69 % of maximum
AAAAAAAACGTCTGGCGGGGTTGAGAAAAA: 46.6 % of maximum
AAAAAATATTCCGCTTTTGGCTGAATAAAA: 36.7 % of maximum
AAAAAAATGATTGCCAATGCTCGCAAAAAA: 48.8 % of maximum

Series 3 — method: protein-binding microarray; form: double-stranded DNA, one strand shown; medium: in vitro; concentration: 250 nM; setting: 60-bp whole probe; together with: salmon DNA 0.4 mg/ml; reference: random background probes; reading: higher = stronger binding; endpoint: log fluorescence
Target: Interferon regulatory factor 5, full length, phosphomimetic (IRF5, Homo sapiens, UniProt Q13568-2, residues 1-514, K96S/S451D/S453D/S456D/S462D)
Constant ends, left off below: GCCTAGCAC … GTGCTAGGTCTTGATTCGCTTGACGCTGCTG
GACGATATCGGTATCGGGAC: 4.8 z-score
GACGAACTGTGTCTCGAGAC: -0.237 z-score
TCAGTTTTTCATTTTGTACT: 1.54 z-score
GACGATCTCAGTACCGAGAC: -0.03 z-score
TCAGGTTTCCAATCAGCACT: 0.257 z-score

Mixed results
PhoQ, residues 284 288 289 292 302 303 ALVSVA
fold induction (PhoP, residues 12 14 15 18 19 TPLRH (Escherichia coli, UniProt P23836); Sort-seq, measured: YFP reporter; E. coli; PhoQ-PhoP variant library, together with: 10 µM Mg2+; reference: high Mg2+ state, higher = stronger signaling): 0.906

Excerpt of the above (series 1):
TCCACGGA: 0.0533
TGACATCA: 0.135
ATTCCCCC: -0.0813
